Assay results gathered from unrelated publications.
Parts stem from different laboratories: compare values within a part only.

Study 1
Target: RING finger protein unkempt homolog, zinc fingers 1-6, SBP tag (UNK, Homo sapiens, UniProt Q9C0B0, residues 30-357)
Sequence of UniProt Q9C0B0 (30-357, looked up): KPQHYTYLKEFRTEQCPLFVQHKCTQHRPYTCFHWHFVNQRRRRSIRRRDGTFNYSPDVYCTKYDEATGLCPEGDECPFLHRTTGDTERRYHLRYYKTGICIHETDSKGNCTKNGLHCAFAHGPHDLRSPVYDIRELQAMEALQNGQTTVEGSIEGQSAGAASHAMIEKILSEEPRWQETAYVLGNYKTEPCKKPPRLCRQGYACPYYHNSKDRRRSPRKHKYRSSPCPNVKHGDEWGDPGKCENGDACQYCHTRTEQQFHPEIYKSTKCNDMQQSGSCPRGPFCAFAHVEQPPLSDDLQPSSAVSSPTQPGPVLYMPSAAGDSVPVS
Method: RNA Bind-n-Seq
Molecule type: RNA
Matrix: in vitro
Concentration: 100 nM
Setting: RNA with constant flanks, vertebrate orthologous sites, ends assumed
Reference: input RNA pool
Direction: higher = stronger binding
With `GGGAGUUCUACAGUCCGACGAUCAAGAAAUGCUGGCUGCAAACCCUCAGGAUCGUCCAGAUGCUUUUGAACUAGAACUCAGAUUAGUACAAAUUGCAUUUAAAGAUAGCAGCUGGGAAACGUGACACAUACAUUGUUUGCAAACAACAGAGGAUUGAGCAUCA` the bound/input enrichment was 0.751 ratio.
The bound/input enrichment of `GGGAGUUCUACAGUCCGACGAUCACCUUUUGUAGGCCAAAUACCCUCCUUCUACUGCUUCUGCCAACUGGAAGCACAGAAAACUAGAAUUUCAUUUUAUUUUGUUUAAAAAAAAAAAAAAAAUUGAUUUCUUGUAACAUCCACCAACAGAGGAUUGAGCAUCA` is reported as 0.758 ratio.
`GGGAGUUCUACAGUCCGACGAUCUUUUGACUUCCUUUAUUCCUUUUUGUUUUCUUUUGCUUUAUUUUUAUUUUAUUUUUUUGGUAGUUGUUCUGACCCACGCCAUUUUACGUCUCCUUCACUGAAGGGCUAGAGUUUUAACUUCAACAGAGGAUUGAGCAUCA` gave a bound/input enrichment of 10.5 ratio.
`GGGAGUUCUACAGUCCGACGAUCAAGGGCUGUGUAGAGUAGCUGUGUUCUUCUUAGGAUGUUGCUUCUUGAUUUUCUUUUUUUAAGGGGUGGGUCAGGGUUGUGACACACCAGCCCAGGCAAGAGCUGCUGCGGGUCACCUCACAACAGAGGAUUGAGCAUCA` gave a bound/input enrichment of 0.551 ratio.
`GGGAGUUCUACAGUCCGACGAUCUCAAGGGUUUAGUUAUUUUUAUUUUUUCUUUCCCCUCAAUCCUUUUUUAUUUUUAAAAACUAGUUCUUUUGUAAUGUGGUGUUCAAAACAAGAUUGAAUACGGGCACUCCACCUCUUUAGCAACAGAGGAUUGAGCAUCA` has a bound/input enrichment of 2.81 ratio.
`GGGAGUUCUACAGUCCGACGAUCCUCGGGGAUACCGUGGGGCGCCGCUGACUGCUUCGCGUCGUUUGAUUUGUGACCUUGAGAUAAUAGAUAGGCUUGUGGUUUGUUUGUUUUUUUAAUUUAAAGAUAUUAAGACUUAAUUCACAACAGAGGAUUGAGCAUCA` gave a bound/input enrichment of 0.511 ratio.
The bound/input enrichment of `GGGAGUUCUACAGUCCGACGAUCAGCAGUAGCAUUGGUUGUUUUUUUGUUGUUUGUUUUUCUUUUGGUAAAUGUAAAAAUAAUUAGAUCCAGACUUUGUUUCCUUAUUCAAUUUUAAAAAUAAAAAAUACCUCAGUGCUGUUUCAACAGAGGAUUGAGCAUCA` is reported as 0.841 ratio.
With `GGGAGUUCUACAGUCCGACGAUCAUGUCCUUGGUUACUGUGAUAUUUAAAAUAUCCACAGUACUCACUUUUUCCAAAUGAUUCUAGUAAUUGCCUAGAAAUAUCUUUCUCUUACCUGUUAUUUAUCAAUUUUUCCCAGUAUUUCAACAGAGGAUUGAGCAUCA` the bound/input enrichment was 1.02 ratio.
The bound/input enrichment of `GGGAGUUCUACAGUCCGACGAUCUGUUCGUGUCAUACCAGCAUAUUAACCUCGCGUCUGUGCACAGCUUCAAAUGUACCGUCGAGUUAGAUUUUUAUUUAAAAGUAUGGAAGGAAAAAAACCCUGCUUUUCCCAAGAUGUUUUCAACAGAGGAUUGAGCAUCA` is reported as 1.14 ratio.
`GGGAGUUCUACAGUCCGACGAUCAGCAACUCAAGGAUUCAGAACUGGUUUUACAGAUGUCCCAAGCAGAUAUGGAACAAACACUCGUGGGCAACCCCGACCAUAAUAAACACCGUUAUUUAUUGUACUUAAGGGUAUUGACUUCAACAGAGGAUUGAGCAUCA` has a bound/input enrichment of 0.257 ratio.
`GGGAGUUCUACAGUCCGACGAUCCUACUCCCGCUCCAGCAGGGGUGUGGGGCCGAAGCAUCCACCAGCACUGCAAGGGGUCCACGGUAUUUUUUUUUUUGCUGCCUCAGUCCCCAGAGCCUUCAAGCAACAGUGGCUGUAGAUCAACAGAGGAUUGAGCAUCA` gave a bound/input enrichment of 0.505 ratio.

Study 2
Target: Histone acetyltransferase KAT6A, both winged helices, GST fusion (KAT6A, Homo sapiens, UniProt Q92794, residues 1-181)
Method: protein binding microarray
Molecule type: double-stranded DNA, one strand shown
Matrix: in vitro
Concentration: not given
Setting: 8-mer, flanks averaged, mean of 2 arrays, mostly near background
Reference: not given
Direction: higher = stronger binding
Construct (chain): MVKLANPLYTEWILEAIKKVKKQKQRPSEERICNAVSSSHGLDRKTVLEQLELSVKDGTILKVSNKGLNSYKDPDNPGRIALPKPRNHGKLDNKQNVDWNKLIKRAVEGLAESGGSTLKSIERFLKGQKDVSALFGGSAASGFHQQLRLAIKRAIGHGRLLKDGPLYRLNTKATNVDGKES
With `CAGCAAAG` the E-score was -0.0103.
The E-score of `ACAGGAAA` is reported as 0.0614.
For `CACACCGC`, the E-score was 0.157.
`ATATCCTA` has an E-score of -0.00553.
`ACTCTTAC` has an E-score of -0.102.
For `ATGTATCG`, the E-score was -0.0358.
The E-score of `CCCACCGA` is reported as -0.214.
The E-score of `ATACGAAG` is reported as -0.101.
For `CCGATGAG`, the E-score was 0.0358.
`ATAGGTGA` gave an E-score of -0.0942.
The E-score of `AGACACCA` is reported as -0.173.
`AGAACTAG` gave an E-score of -0.147.
For `GTTGTTTA`, the E-score was -0.151.
`CGAGTTAG` gave an E-score of -0.0341.
`ACCAGCAG` has an E-score of -0.205.
For `CTGATGGA`, the E-score was -0.0193.
`CAAGCCGA` has an E-score of 0.163.
With `CCCCCAGG` the E-score was -0.235.
`TATACTCA` gave an E-score of -0.102.
`ACAATTGC` gave an E-score of -0.0508.
`CATTGGGC` has an E-score of -0.104.
With `CAATTACA` the E-score was 0.00249.
With `AGCGACGG` the E-score was 0.312.
`CGCAGACC` gave an E-score of 0.109.

Study 3
Target: Fragile X messenger ribonucleoprotein 1, C-terminal low-complexity region (Fmr1, Mus musculus, UniProt P35922)
Method: RNA Bind-n-Seq
Molecule type: RNA
Matrix: in vitro
Concentration: 200 nM
Setting: whole 134-nt RNA, ends assumed
Added: 150 mM LiCl
Reference: input library
Direction: higher = stronger binding
All molecules: 7-deaza-guanosine replaces G
The log2 enrichment of `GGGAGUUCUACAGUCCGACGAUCUACUGCUCCUCAGCAGGAAGCGGAUGCUGAGGUGAACACAGAAACACUAAAUAAGUCCUCCCAGGGGAGCUCCUCGAGCACACAAUCAGCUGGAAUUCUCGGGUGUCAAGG` is reported as 1.56.
`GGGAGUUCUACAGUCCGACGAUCUUCCCGGAGAACUCGAGUAAAUCUAGAAGUUGCCAGGUUUCAGAACUAUUUAUUCCUUUAAUGUGCAGACGAAGGGAACGUCAUCGUUUGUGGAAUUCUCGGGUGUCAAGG` has a log2 enrichment of -0.0759.
For `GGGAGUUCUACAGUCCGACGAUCAGUCCUGUGCUACACAUCGUAUGUACCGAAUCGGUUUUUGGAAAAAAAGGUUUUUGGAAAGUAUUAUGUUACGCCGUUCGGAUCUGCACUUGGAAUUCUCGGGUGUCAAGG`, the log2 enrichment was -3.69.
With `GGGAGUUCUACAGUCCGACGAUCCCUGUGCUACACAUCGUAUGUACCGAAUCGGGAAAAAGGGUUUUUUUGGGAAAAAAAGGGAAAGUAUUAUGUUACGCCGUUCGGAUCUGCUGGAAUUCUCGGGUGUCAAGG` the log2 enrichment was -2.14.
`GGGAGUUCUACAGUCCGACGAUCCCUGUGCUACACAUCGUAUGUACCGAAUCGGGGAAAGGGGAAAAAAAGGGGAAAAAGGGGAAAGUAUUAUGUUACGCCGUUCGGAUCUGCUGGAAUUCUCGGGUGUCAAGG` gave a log2 enrichment of 1.12.
`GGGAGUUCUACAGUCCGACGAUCCAAGUCCUGUGCUACACAUCGUAUGUACCGAAUCGGUUUGGUUUUUUUGGUUUGGAAAGUAUUAUGUUACGCCGUUCGGAUCUGCACUUCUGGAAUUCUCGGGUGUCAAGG` has a log2 enrichment of -1.98.
With `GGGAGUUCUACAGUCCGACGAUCAGUCCUGUGCUACACAUCGUAUGUACCGAAUCGGGGAAAAGGGGAAAAGGGAAAAGGGAAAGUAUUAUGUUACGCCGUUCGGAUCUGCACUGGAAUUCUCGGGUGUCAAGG` the log2 enrichment was -0.0445.
For `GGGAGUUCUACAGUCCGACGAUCACCAUGCAGGUGGGCAUCUUUGGGAAGUGGGGCUAGGGGGGGAUAGGGAGGGGGGUAACACUUUGGGAACAGGUGGUCCCAGGUCGUUUCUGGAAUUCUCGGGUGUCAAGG`, the log2 enrichment was 1.23.
The log2 enrichment of `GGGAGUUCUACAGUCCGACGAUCAGUCCUGUGCUACACAUCGUAUGUACCGAAUCGGUUUGGAAAAAAAGGAAAAAAAGGAAAGUAUUAUGUUACGCCGUUCGGAUCUGCACUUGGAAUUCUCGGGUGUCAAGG` is reported as -2.15.
`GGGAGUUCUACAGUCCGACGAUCCAAGUCCUGUGCUACACAUCGUAUGUACCGAAUCGGCCCGGGGCCCGGGCCCGGGAAAGUAUUAUGUUACGCCGUUCGGAUCUGCACUUCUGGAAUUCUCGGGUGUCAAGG` has a log2 enrichment of -1.86.
For `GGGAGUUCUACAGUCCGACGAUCAGUCCUGUGCUACACAUCGUAUGUACCGAAUCGGUUUUUGGUUUUUGGUUUUUGGGGAAAGUAUUAUGUUACGCCGUUCGGAUCUGCACUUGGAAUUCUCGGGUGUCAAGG`, the log2 enrichment was -1.73.

Study 4
Target: RNA binding protein fox-1 homolog 2, RRM domain, GST-SBP tag (RBFOX2, Homo sapiens, UniProt O43251-10, residues 100-194)
Method: RNA Bind-n-Seq
Molecule type: RNA
Matrix: in vitro
Concentration: 365 nM
Setting: natural RNA segment, single round, ends assumed
Reference: no-protein control
Direction: higher = stronger binding
Target sequence (chain): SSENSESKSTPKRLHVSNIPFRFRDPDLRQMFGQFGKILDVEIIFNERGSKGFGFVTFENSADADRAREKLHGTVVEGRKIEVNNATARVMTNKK
`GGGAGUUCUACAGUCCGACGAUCAGUAAUUUUGCCAUCCUAGGCUUAAAUGCAAUAUUCCUGGUAUUAUUUACAAUGCAGAAUUUUUUGAGUAAUUCUAGCUUUCAAAAAUUAGUGAAGUUCUUUUACUGUAAUGGAAUUCUCGGGUGCCAA`: “RBNS enrichment (R)” 0.485.
Under “RBNS enrichment (R)”, `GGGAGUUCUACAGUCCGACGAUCGUCAGUGUUUGCCUUCGCACCUCCUCCCCUAAAGCAGCGCGGGGGGCAAAUAAGACCCCACCCCUCCCUGCAGCUUCACAGGGACGCUUCCUUCCCUCCCCGCAACCACCUGGAAUUCUCGGGUGCCAA` is recorded as 1.77.
For `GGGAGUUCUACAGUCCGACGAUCGUGGAUAGUUUGUGGAAAUCAUCCAAUUAAACAUACUGCUUAAAACAGUGUUGCUGUGACUUCAGAGACAAGCCUGGAAGGGGCACCUUAGGAAGCCCCUUCGCUUCAGUUGGAAUUCUCGGGUGCCAA`, “RBNS enrichment (R)” read 0.313.
`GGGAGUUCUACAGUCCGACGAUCACAUAUGUUCUUUUGUCAUUACCCAAUUUAACCUCCCUUUCUCUGAUAUGCCUUGUAGCCAAAGUAUUAAAGGCUGAUGAACAUAGACAAGGGAAAUGCAUUUCUUAGAAUGGAAUUCUCGGGUGCCAA` — result for “RBNS enrichment (R)”: 0.942.
`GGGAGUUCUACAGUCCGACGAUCGAAUUUUAAUAAAACAGAAGGAAACUAAUGGACCUUCCAGGAUUUAUUGUGGACGGAUGUGGAUAUAUUCUGUACAGGAACAACACAUAUGGAAGUGGACUGAAGCCUAUUGGAAUUCUCGGGUGCCAA` — result for “RBNS enrichment (R)”: 0.519.
`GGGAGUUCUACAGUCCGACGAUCCAGGCAACAGACACAAUCUGUGCUGAUUAAACUGUCAGCUGGAUACCAGACUUUUAGGGAGACUGGACAAACAUCAGGACUGGCUUUUAUAAGUAGGCAGGUAAUCUUCAUGGAAUUCUCGGGUGCCAA` — result for “RBNS enrichment (R)”: 0.294.
`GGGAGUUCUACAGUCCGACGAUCAACCUCCAGGCAGGAACCGGCUCGCCACCCUCUGCCCGGUAAGGGCUGCCCAAGAAAGCAUUACCCGCCCUCGGGGGGUCGGGCUGUGGGGGUCCCGGCACCUGGCGUGAUGGAAUUCUCGGGUGCCAA` — result for “RBNS enrichment (R)”: 0.344.
`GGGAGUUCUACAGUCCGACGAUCUCUGGCUAUCACCACUGGCCUCUGGGGUCUUCAUAUCUUGCCAUCUCAUCCAGGGUUCCAUGAAAGUUACCCAGGGUCCUCAUGUCCUUCCUUAGAGCCUGAGUGGUGUGUGGAAUUCUCGGGUGCCAA`: “RBNS enrichment (R)” 0.318.
Under “RBNS enrichment (R)”, `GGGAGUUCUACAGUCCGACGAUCUUGUUUUAACAUUUUUUUCAAAGUAUUUAGGUAAUGAUGUAUUAACUUCACAUUCAGAUUUAUGUUCCAUUUCUUUUGACUGAGAAAAGUUGAACGGUAUGCAUGGUGAAUGGAAUUCUCGGGUGCCAA` is recorded as 4.96.
